# Results of several laboratories.
# Compare with care: the assays were run in different laboratories.
Compound,target or system,test,test system,setting,measurement,value
O=C(O)C(=O)O.[NH-][C@@H]1CCCC[C@H]1[NH-].[Pt+2],human coronavirus OC43,virus-induced cell killing,MRC-5,screen,maximum inhibition,5.69%
CN1CCN(C2(CNC3CCN(c4cccc(-c5cc6cc(F)ccc6[nH]5)c4)CC3)CCC2)CC1,CAKI-1,,,,GI50,1.71 µM
COc1c(CCC[P+](c2ccccc2)(c2ccccc2)c2ccccc2)cc2c(c1OC)OCO2.[I-],CAKI-1,SRB,,,TGI,-5.13 log M
COc1c(C)c2c(c(O)c1C/C=C(\C)CCC(=O)O)C(=O)OC2,CAKI-1,cell proliferation,kidney cancer,,IC50,0.977 µM
Cc1cc(N(CCOS(C)(=O)=O)CCOS(C)(=O)=O)ccc1C(=O)O,CAKI-1,cell growth,,,IC50,15.8 µg/mL
Cn1cncc1C1=CN(c2ncnc3[nH]cnc23)CCS1,CAKI-1,,,renal cancer,CC50,> 200 µM
Cc1ccc(C(=O)Nc2ccc(CN3CCN(C)CC3)c(C(F)(F)F)c2)cc1C#Cc1cnc2cccnn12,human coronavirus OC43,virus-induced cell killing,MRC-5,maximum over 10 doses,maximum inhibition,0%
COc1cc(CCC[P+](c2ccccc2)(c2ccccc2)c2ccccc2)c(OC)c2c1OCO2.[I-],CAKI-1,SRB,,,TGI,-5.14 log M
CC(C)N1CCC(NC2CCN(c3cccc(-c4cc5cc(F)ccc5[nH]4)c3)CC2)CC1,CAKI-1,,,,CC50,5.74 µM
CCN(CC)c1ccc(C=NNC(=O)CSc2nc3ccccc3c(=O)n2Cc2ccc(S(N)(=O)=O)cc2)c(O)c1,CAKI-1,NCI five-dose screen,,,CC50,> 100 µM

# Repeated from above:
Compound,target or system,test,test system,setting,measurement,value
CC(C)N1CCC(NC2CCN(c3cccc(-c4cc5cc(F)ccc5[nH]4)c3)CC2)CC1,CAKI-1,,,,CC50,5.74 µM
